Experimental data from different studies.
Numbered parts are unrelated; each lists some results of a single study.

Sample 1
Target: RNA binding protein fox-1 homolog 2, RRM domain, GST-SBP tag (RBFOX2, Homo sapiens, UniProt O43251-10, residues 100-194)
Technique: RNA Bind-n-Seq
Molecule type: RNA
Matrix: in vitro
Tested at: 365 nM
Notes: natural RNA segment, single round, ends assumed
Baseline: no-protein control
Direction: higher = stronger binding
Construct (chain): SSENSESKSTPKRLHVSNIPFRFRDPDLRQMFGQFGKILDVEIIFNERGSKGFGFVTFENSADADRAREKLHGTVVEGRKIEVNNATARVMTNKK
| Strand | RBNS enrichment (R) |
| --- | --- |
| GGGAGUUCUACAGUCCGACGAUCCUGCCCUGUCCCUCCUUGGAAACAGCAGCUUUGCCGAGGGCUCCCCAGCUUCCAUCUCAGGAGACCAGAACUCAUGGAAAAAUUAGGCACUUUUGGCUAAAAGUGCGAAUUGGAAUUCUCGGGUGCCAA | 0.27 |
| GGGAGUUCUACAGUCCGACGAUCAAAUGACAUUUGAAAGCCAUUAGACUUCUAGGUGAUGCAUCUAAGAAAGAUUAAUCACACAAUAGAGGCAUAUGCGCUGUCAUUUUUCCUUUUUUUAAUUGUUAAAUUGAUGGAAUUCUCGGGUGCCAA | 0.289 |
| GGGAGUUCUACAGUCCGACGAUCAUACGAAGAUCUUCUCAGAUGCAAUUUUUCUUUUUCAUUUUUUAAAACUUCUAAAAAAGGUCAUGAGAUAAAACAGCUAUUCUUAUGCCUAAAUUAACAGUGGAAAAUACUGGAAUUCUCGGGUGCCAA | 0.63 |
| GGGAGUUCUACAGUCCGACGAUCUAUUUAUUUUUCUAUUAUAGCCAUAUUUAUAUAUUUAUGCACUUGUAAAUAAAUGUAUAUGUUUUAUAAUUCUGGAGAGACAUAAGGAGUCCUACCCGUUGAGGUUGGAGUGGAAUUCUCGGGUGCCAA | 0.676 |
| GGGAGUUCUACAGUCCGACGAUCUUUGAGAUUUGUAAAUUGUAUAUAACCAUCUUAAGUUCUGGUCAGUGUGGCGGGCUCAGGGGCUCCUGCUGAGCAAACCGACUCAUGCCCGCAAACCUGUGAACUUUCGCUGGAAUUCUCGGGUGCCAA | 0.315 |
| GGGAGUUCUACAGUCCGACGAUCCAAUCAUGGAAAGCAUGUUGUGUGGCUCUGAUCCUAGUAUUUGGGAAACAGAGACAGAAAGGUUAGAUCUUAAAAGUCAAUCUCGGCUACAUAGUGUGAGUCAAGGCCAGUGGAAUUCUCGGGUGCCAA | 1.12 |
| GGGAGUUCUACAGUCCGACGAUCAGCCCAUCGAGAAGGGGCCUAGGGCGAAAUGAACACAAAGCCUCGAAAUCAGUGCGCUCCAGCUGAUCUCGUUCCGCCGGUUCCCCUUGGCCGCCAGUUCCGUUCUCCUCUGGAAUUCUCGGGUGCCAA | 0.349 |
| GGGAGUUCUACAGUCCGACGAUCCCAAUGUCUUGAUGCAUGCACUGUUCCCCCUGUGCAGCCGCUGAGCGAGGAGAUGCUCCUUGGGCCCUUUGAGUGCAGUCCUGAUCAGAGCCGUGGUCCUUUGGGGUGAAUGGAAUUCUCGGGUGCCAA | 7.9 |

Sample 2
Target: Histone acetyltransferase KAT6A, winged helix 1, GST fusion (KAT6A, Homo sapiens, UniProt Q92794, residues 1-85)
Technique: protein binding microarray
Molecule type: double-stranded DNA, one strand shown
Matrix: in vitro
Tested at: not given
Notes: 8-mer, flanks averaged, mean of 2 arrays, mostly near background
Baseline: not given
Direction: higher = stronger binding
Construct (chain): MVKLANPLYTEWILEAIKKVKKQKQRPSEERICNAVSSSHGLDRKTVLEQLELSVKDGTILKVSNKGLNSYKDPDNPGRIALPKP
| Strand | E-score |
| --- | --- |
| AGTTCAAG | -0.0762 |
| AGGAATTC | -0.135 |
| AGAACAGA | -0.149 |
| ATGTGTTG | -0.124 |
| ACAGGTCC | -0.0418 |
| ACCCGCTG | 0.228 |
| AGTGTTCA | -0.092 |
| CGTAGTTC | 0.155 |
| CAGTGCAG | -0.12 |
| AGACTCAC | -0.254 |
| CCTTTATA | -0.209 |
| CAGTGCCC | -0.0264 |
| ATAACAAT | -0.213 |
| GCCCGTAA | 0.289 |
| GTGACTGA | -0.143 |
| CCTCGTGC | -0.0916 |
| AATTCGCT | -0.074 |
| CGAACGCG | 0.334 |
| GCGTTAAC | 0.26 |
| CCATCAAA | -0.17 |
| GCATCGGC | 0.252 |
| TATTCGGA | -0.103 |

Sample 3
Target: Prothrombin, mature alpha-thrombin (F2, Homo sapiens, UniProt P00734)
Technique: aptamer microarray, sandwich
Molecule type: DNA with 2'F-ANA
Matrix: in vitro
Tested at: 200 nM
Notes: whole 15-mer aptamer, many near background
Added: Cy3 exosite-II aptamer, 400 nM
Direction: higher = stronger binding
Strand: GGTTGGTGTGGTTGG
| Modification | mean fluorescence intensity [a.u.] |
| --- | --- |
| 2'F-ANA at 4 12 14 15 | 143 |
| 2'F-ANA at 1 2 3 5 7 10 11 12 14 | 61.9 |
| 2'F-ANA at 4 10 13 14 | 88 |
| 2'F-ANA at 3 4 6 7 8 9 13 14 | 238 |
| 2'F-ANA at 1 2 5 8 9 10 12 13 | 50.1 |
| 2'F-ANA at 5 6 10 11 13 15 | 46.4 |
| 2'F-ANA at 2 4 6 8 13 14 | 95.5 |
| 2'F-ANA at 3 4 5 6 8 9 11 14 | 49.2 |
| 2'F-ANA at 1 3 4 6 7 8 10 11 12 13 15 | 69.7 |
| 2'F-ANA at 1 2 4 6 8 9 12 13 14 15 | 55.2 |
| 2'F-ANA at 1 2 7 9 11 14 | 52.4 |
| 2'F-ANA at 1 2 4 5 7 8 11 14 15 | 68 |
| 2'F-ANA at 2 3 4 6 7 9 12 14 15 | 240 |
| 2'F-ANA at 1 2 8 9 10 11 13 | 50.2 |
| 2'F-ANA at 1 2 4 5 6 7 8 | 61.4 |
| 2'F-ANA at 1 2 4 5 7 9 10 11 12 13 15 | 47.6 |
| 2'F-ANA at 1 3 4 9 13 14 15 | 103 |
| 2'F-ANA at 2 3 5 10 11 14 | 56.1 |
| 2'F-ANA at 1 2 3 4 5 6 10 12 15 | 52.8 |
| 2'F-ANA at 1 3 4 5 6 9 10 11 13 15 | 51.4 |
| 2'F-ANA at 1 5 6 8 9 10 13 15 | 49.6 |
| 2'F-ANA at 1 2 4 5 6 7 10 12 13 | 46.8 |
| 2'F-ANA at 2 7 10 11 12 13 14 | 87.3 |
| 2'F-ANA at 1 3 6 7 8 9 10 13 15 | 76.5 |
| 2'F-ANA at 2 3 4 9 11 12 | 765 |

Sample 4
Target: Ras GTPase-activating protein-binding protein 1, full length (G3BP1, Homo sapiens, UniProt Q13283)
Chain of UniProt Q13283 (whole entry, looked up): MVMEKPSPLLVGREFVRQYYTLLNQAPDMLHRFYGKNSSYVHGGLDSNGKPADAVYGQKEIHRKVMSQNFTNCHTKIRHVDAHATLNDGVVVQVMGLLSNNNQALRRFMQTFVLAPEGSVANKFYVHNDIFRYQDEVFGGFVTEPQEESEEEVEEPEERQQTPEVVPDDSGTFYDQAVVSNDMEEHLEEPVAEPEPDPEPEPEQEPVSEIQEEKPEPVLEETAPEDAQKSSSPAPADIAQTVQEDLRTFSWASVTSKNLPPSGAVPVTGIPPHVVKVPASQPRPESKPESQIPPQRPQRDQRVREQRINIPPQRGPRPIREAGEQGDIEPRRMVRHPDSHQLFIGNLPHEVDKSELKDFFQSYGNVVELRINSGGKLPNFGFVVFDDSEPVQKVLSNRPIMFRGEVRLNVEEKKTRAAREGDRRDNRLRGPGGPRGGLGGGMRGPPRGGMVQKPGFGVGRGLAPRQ
Technique: RNA Bind-n-Seq
Molecule type: RNA
Matrix: in vitro
Tested at: 200 nM
Notes: whole 134-nt RNA, ends assumed
Added: 150 mM LiCl
Baseline: input library
Direction: higher = stronger binding
Each molecule: 7-deaza-guanosine replaces G
| Strand | log2 enrichment |
| --- | --- |
| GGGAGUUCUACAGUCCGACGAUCUCCUGUGCUACACAUCGUAUGUACCGAAUCGGGUUUUUUUGGGUUUUUGGGAAAAAGGGAAAGUAUUAUGUUACGCCGUUCGGAUCUGCAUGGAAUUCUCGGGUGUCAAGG | 0.0453 |
| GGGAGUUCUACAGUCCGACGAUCAGUCCUGUGCUACACAUCGUAUGUACCGAAUCGGGAAAAAGGGAAAAAGGGAAAGGGAAAGUAUUAUGUUACGCCGUUCGGAUCUGCACUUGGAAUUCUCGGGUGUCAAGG | -0.765 |
| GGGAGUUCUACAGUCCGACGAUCCCUGUGCUACACAUCGUAUGUACCGAAUCGGGAAAAAAGGGAAAAAAGGGAAAAAAGGGGAAAGUAUUAUGUUACGCCGUUCGGAUCUGCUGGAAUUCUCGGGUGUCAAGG | 0.224 |
| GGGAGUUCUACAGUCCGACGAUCUAACUUUAGAGGAGGAUCUGAUGGAUAUGGCAGUGGACGUGGAUUUGGGGAUGGCUAUAAUGGGUAUGGAGGAGGAGCUGGAGGUGGCAAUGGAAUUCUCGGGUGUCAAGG | 0.413 |
| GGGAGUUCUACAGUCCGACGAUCUGGCCCUGGUGGCAUGCGGGGAGGAAGGGGUGGCCUCAUGGAUCGUGGUGGUCCCGGUGGAAUGUUCAGAGGUGGCCGUGGUGGAGACAGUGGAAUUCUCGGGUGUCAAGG | 0.281 |
| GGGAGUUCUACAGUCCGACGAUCAGUCCUGUGCUACACAUCGUAUGUACCGAAUCGGGGAGGGGAAAGGGGUUUUUGGGGAAAGUAUUAUGUUACGCCGUUCGGAUCUGCACUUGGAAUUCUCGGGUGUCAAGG | -0.106 |
| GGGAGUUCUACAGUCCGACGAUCGUCCUGUGCUACACAUCGUAUGUACCGAAUCAAACCCAAAUUUUUAAACCCCCCCAAAAAAGUAUUAUGUUACGCCGUUCGGAUCUGCACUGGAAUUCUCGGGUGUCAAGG | 1.11 |
| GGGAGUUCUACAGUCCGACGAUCACCAUGCAGGUGGGCAUCUUUGGGAAGUGGGGCAAGGGGGGGAUAGGGAGGGGGGUAACACUUUGGCAACAGGUGGUCCCAGGUCGUUUCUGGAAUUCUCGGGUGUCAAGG | 0.329 |

For quick reference, copied from above (sample 3):
| Modification | mean fluorescence intensity [a.u.] |
| --- | --- |
| 2'F-ANA at 1 3 6 7 8 9 10 13 15 | 76.5 |
| 2'F-ANA at 1 2 8 9 10 11 13 | 50.2 |
| 2'F-ANA at 1 2 4 5 7 9 10 11 12 13 15 | 47.6 |
| 2'F-ANA at 2 4 6 8 13 14 | 95.5 |
| 2'F-ANA at 3 4 5 6 8 9 11 14 | 49.2 |
| 2'F-ANA at 1 3 4 6 7 8 10 11 12 13 15 | 69.7 |
| 2'F-ANA at 1 5 6 8 9 10 13 15 | 49.6 |
| 2'F-ANA at 1 2 3 4 5 6 10 12 15 | 52.8 |
| 2'F-ANA at 1 3 4 9 13 14 15 | 103 |
